Published values gathered from unrelated publications.
Lines come from different studies, so protocols differ.
Cdca7: Cdca7 241-382 (Mus musculus, UniProt Q9D0M2)
Sequence of UniProt Q9D0M2 (whole entry, looked up): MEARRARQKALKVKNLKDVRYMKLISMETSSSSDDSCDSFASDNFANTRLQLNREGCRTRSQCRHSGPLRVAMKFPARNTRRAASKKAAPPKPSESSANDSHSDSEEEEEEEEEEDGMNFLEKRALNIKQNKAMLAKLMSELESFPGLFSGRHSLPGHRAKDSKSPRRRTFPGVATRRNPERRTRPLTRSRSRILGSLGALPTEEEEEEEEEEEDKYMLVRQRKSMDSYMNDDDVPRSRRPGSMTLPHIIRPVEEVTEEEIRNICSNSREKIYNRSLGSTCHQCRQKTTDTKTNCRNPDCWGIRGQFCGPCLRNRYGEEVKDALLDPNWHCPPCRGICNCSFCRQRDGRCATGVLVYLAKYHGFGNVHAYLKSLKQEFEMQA
IHF alpha/IHF beta: IHF alpha/IHF beta (Escherichia coli)
T1: MBNL1 ZF1-2/ZF3-4, N-terminal HA tag (Homo sapiens); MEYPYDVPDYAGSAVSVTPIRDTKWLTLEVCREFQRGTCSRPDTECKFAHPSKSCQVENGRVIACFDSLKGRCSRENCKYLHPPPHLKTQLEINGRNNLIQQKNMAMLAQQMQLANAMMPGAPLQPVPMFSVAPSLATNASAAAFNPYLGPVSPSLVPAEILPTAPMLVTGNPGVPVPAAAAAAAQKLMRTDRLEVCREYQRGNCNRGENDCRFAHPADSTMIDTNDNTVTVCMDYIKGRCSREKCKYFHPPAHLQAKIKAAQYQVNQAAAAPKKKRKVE
Sequence of UniProt O95639 (whole entry, looked up): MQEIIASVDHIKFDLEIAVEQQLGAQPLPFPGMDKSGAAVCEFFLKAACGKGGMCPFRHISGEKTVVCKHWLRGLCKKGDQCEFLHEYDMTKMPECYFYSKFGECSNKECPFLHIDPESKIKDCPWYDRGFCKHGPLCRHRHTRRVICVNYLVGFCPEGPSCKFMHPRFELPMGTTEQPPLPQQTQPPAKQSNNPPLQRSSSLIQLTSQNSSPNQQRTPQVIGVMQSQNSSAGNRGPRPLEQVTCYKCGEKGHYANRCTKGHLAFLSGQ
Sequence of UniProt P00698 (whole entry, looked up): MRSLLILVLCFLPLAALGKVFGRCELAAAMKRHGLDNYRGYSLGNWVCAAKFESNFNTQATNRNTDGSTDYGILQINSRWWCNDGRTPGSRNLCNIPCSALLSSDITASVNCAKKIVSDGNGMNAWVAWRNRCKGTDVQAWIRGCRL
Sequence of UniProt Q9H6S0 (whole entry, looked up): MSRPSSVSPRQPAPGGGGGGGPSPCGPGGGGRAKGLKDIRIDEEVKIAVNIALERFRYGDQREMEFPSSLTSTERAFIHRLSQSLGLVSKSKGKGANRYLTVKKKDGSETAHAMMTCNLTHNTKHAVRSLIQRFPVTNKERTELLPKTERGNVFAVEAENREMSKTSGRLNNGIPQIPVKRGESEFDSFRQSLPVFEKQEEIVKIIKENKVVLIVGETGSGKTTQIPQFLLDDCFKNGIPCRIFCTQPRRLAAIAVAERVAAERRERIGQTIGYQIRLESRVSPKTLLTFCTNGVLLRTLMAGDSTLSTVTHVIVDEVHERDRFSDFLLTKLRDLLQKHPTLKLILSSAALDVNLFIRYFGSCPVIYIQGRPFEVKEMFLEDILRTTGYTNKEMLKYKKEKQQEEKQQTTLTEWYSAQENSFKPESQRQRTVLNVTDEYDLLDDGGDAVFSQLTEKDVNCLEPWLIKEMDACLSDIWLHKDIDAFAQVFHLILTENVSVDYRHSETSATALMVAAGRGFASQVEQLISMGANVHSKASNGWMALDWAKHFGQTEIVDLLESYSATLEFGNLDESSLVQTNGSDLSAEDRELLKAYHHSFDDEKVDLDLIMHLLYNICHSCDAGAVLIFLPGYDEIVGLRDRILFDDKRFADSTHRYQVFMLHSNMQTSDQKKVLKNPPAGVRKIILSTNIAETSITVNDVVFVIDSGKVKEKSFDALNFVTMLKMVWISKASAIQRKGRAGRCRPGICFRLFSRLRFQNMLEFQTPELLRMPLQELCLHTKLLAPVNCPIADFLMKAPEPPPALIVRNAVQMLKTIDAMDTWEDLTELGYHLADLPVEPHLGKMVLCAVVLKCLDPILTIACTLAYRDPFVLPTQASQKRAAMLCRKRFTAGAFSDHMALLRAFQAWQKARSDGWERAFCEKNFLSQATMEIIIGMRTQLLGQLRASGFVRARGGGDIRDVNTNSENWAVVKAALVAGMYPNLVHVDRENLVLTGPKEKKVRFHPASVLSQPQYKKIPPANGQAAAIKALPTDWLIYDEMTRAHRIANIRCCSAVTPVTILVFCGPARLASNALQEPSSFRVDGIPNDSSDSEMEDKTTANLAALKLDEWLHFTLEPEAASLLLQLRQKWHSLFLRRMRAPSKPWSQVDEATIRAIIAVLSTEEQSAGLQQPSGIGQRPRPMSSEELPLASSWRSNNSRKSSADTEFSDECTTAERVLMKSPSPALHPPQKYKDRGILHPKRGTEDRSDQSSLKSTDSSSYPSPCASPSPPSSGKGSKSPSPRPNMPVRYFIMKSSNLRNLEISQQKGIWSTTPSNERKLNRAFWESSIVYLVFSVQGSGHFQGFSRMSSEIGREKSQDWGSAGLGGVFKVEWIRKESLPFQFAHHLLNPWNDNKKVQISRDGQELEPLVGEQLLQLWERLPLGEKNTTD
Sequence of UniProt Q16637 (whole entry, looked up): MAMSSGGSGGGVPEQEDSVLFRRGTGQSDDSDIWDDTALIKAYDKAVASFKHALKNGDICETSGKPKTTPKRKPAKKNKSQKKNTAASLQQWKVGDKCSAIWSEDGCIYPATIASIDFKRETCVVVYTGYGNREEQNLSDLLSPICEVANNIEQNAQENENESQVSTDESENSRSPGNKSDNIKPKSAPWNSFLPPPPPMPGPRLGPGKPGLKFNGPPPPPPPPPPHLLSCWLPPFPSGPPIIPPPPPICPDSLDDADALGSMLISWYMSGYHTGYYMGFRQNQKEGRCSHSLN
Sequence of UniProt Q8TEQ6 (whole entry, looked up): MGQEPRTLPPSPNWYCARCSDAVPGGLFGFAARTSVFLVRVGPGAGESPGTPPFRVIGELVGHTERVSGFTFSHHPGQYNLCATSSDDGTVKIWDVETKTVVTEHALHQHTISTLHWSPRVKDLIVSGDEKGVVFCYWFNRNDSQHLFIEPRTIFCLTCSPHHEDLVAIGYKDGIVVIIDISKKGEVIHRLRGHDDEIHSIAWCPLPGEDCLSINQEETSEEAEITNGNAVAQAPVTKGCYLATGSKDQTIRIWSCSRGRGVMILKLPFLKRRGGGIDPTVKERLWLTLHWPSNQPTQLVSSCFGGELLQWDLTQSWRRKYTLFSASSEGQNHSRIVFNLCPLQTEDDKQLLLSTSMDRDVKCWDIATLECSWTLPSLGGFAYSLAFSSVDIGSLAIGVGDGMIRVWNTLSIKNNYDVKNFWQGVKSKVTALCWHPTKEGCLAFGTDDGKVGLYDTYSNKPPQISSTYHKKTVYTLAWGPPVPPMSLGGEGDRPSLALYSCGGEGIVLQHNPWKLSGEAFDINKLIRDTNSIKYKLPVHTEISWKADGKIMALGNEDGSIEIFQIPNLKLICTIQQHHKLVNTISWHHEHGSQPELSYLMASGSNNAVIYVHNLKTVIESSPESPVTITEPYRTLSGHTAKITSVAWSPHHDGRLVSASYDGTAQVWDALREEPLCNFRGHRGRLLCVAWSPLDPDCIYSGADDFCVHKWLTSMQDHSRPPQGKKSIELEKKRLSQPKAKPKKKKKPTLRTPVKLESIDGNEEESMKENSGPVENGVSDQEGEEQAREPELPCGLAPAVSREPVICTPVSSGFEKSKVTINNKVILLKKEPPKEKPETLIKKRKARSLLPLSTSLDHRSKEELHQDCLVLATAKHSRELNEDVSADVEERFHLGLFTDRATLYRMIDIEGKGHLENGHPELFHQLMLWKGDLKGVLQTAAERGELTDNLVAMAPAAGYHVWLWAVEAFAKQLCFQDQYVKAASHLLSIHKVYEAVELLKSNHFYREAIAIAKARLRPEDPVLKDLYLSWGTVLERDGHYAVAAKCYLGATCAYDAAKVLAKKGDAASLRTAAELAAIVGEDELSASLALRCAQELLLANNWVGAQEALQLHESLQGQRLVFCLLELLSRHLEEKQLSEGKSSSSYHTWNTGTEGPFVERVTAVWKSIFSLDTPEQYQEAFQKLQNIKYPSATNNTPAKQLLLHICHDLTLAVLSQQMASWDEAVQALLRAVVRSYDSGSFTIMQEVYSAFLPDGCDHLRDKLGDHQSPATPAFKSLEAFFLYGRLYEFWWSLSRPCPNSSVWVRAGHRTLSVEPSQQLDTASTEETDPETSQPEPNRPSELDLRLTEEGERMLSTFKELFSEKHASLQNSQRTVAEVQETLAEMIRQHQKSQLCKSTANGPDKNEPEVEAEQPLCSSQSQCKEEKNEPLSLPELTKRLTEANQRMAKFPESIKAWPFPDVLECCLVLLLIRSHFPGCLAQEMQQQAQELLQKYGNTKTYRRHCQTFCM
Sequence of UniProt Q01130 (whole entry, looked up): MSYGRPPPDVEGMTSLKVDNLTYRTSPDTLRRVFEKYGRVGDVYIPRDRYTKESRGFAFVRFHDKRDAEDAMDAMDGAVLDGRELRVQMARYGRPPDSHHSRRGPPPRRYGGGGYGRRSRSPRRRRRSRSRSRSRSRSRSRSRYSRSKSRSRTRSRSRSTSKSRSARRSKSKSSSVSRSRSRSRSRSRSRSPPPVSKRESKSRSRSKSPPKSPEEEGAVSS
Sequence of UniProt Q9UKA9 (whole entry, looked up): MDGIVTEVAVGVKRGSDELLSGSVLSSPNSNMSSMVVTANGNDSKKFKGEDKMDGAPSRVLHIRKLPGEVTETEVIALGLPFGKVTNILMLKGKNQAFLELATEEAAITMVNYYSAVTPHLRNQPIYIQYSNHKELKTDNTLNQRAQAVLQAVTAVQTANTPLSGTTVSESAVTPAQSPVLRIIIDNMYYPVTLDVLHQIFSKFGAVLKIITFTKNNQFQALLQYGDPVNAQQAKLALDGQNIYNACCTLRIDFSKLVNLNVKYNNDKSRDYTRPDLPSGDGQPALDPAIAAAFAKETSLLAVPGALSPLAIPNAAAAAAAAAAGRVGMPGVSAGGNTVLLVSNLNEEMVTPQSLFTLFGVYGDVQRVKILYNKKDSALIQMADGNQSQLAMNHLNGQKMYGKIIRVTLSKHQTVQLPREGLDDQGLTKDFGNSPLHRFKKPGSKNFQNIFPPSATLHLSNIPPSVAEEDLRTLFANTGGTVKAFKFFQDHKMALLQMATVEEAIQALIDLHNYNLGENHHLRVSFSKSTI

Sequence | target | technique | molecule type | concentration | temperature | notes | binding
GGGUAACCAUUAUAACCUGCAAUAAACAACUUAACAACAC (ssRNA) | CPSF4 full length assumed (Homo sapiens, UniProt O95639) | UV cross-linking | RNA | – | – | within CPSF complex | binds
AAUUUUUGA (ssRNA) | GEMIN5 1-726 (Homo sapiens, UniProt Q8TEQ6) | EMSA | RNA | – | – | two shifted bands | binds
GCGACGCCCTGTCGGTGAGAAACCGTTTGCGTCGC (DNA; non-B structure) | Cdca7 | EMSA | folded DNA | – | – | – | binds
CGGGTGTCGGGGCTGGCTTAACTATGCGGCATCAGAGCAGATTGTACTGAGAGTGCACCATATGCGGTGTGAAATACCGCACAGATGCGT (ssDNA) | RAD51 full length assumed K133A (Homo sapiens, UniProt Q06609) | filter binding | single-stranded DNA | – | – | – | binds
RNA 1 GGAGGAUGUUAAUUGGCGUGUCUUGUCUGCAACGGUAUUC / RNA 2 GAAUACCGUUGCAGACAAGACACGCCAAUUAACAUCCUCC (dsRNA) | EIF2AK2 1-185 F131W (Homo sapiens, UniProt P19525) | tryptophan fluorescence anisotropy | double-stranded RNA | 1 µM | – | – | binds
CCCUCUGUCCCGGAGCCCGCAGAUCGCGACCCAGAGCGCGCGGGGCCGAGAGCCGAGAGACAGUCCCGGGCGCAGCGCGGAGCUCCGGGCCCCGAGAUCC (structured RNA) | PTBP2 full length assumed (Homo sapiens, UniProt Q9UKA9) | EMSA | folded RNA | – | – | – | no binding
DNA 1 TGGCCAAAAAAGCATTGCTTATCAATTTGTTGCACC / DNA 2 TGGTGCAACAAATTGATAAGCAATGCTTTTTTGGCC (dsDNA; 5' T overhangs) | IHF alpha/IHF beta | fluorescence anisotropy | double-stranded DNA | – | 20 °C | – | binds
GCAGCCCAUGAUGGCUGAAUCCGAAAUCCUCGAUGGGUCCAGCUUGAUGUCUUUGCAGC (structured RNA) | SECISBP2 344-854 I535S/I536V/L537R/K538V/E539Y (Homo sapiens, UniProt Q96T21) | EMSA | folded RNA | – | – | – | no binding
UUUUUAAUUGAUUACGUUCGCUUUUGUUUGAUUAUUGUUUUGG (ssRNA) | elav full length assumed (Drosophila melanogaster, UniProt P16914) | EMSA | RNA | – | – | – | binds
GAAACGGGACGGCACCUCUUUUAACCCUUGAAGUCACUGCCCGUUUCGAGAGUUUCUCAACUCGAAUAACUAAAGCCAACGUGAACUUUUGCGGAUCUCCAGGAUCCGCUUUUUUUU (structured RNA) | hfq full length assumed F42W (Escherichia coli, UniProt P0A6X3) | tryptophan fluorescence quenching | folded RNA | – | – | – | binds
RNA CAACGCCCUGUCGGUGAGAAACCGUUUGCA / DNA TGCAAACGGTTTCTCACCGACAGGGCGTTG (DNA:RNA hybrid) | Cdca7 | EMSA | DNA-RNA hybrid | – | – | – | no binding
GCUGCUGUUCGCUGCUG (ssRNA; hairpin) | T1, MBNL1 ZF1-2/ZF3-4, N-terminal HA tag (Homo sapiens) | EMSA | folded RNA | – | – | – | binds
DNA 1 TGGCCAAAAAAGCATTGCTTATCAATTTGTTGCACC / DNA 2 TGGTGCAACAATATGATAAGCTTTGCTTTTTTGGCC (dsDNA; 5' T overhangs; two 2-bp mismatches) | IHF alpha/IHF beta | FRET, laser T-jump | double-stranded DNA | – | – | KCl 100 mM | binds
CUAGGCGCAGUUGUGUAGCAGUUGAGUAAUGCUGGUUAGCUGUUAAGGUGGCGUGUUGCAGUGCAGAGUGCUUGGCUGUUUCCUGUUUUCUCCCGAUUGCUCCUGUGUAA (RNA; long stem loop) | SRSF2 1-221 (Homo sapiens, UniProt Q01130) | RNase footprinting | folded RNA | – | – | – | binds
GTCGACCAGCTGAGTCGACCAGCTG (ssDNA; N6-methyl-dA) | YTHDC2 1268-1430 (Homo sapiens, UniProt Q9H6S0) | pull-down | single-stranded DNA | – | – | – | binds
AGGGGGCCGUGGGGUGGGAGCUGGGG (G-quadruplex RNA; G4) | ILF3 1-894 (Homo sapiens, UniProt Q12906) | EMSA | folded RNA | 100 nM | – | – | binds
GGGCUCACCACGCACGUGCGAACUUACUCGUGGAACCGGCCCUCACCACGGCAAGCU (structured RNA) | Survival motor neuron protein 1-294 (Homo sapiens, UniProt Q16637) | competition | folded RNA | – | – | little effect | binds
CAACGCCCTGTCGGTGAGAAACCGTTTGCA (dsDNA) | Cdca7 | EMSA | double-stranded DNA, one strand shown | – | – | – | no binding
ATGTGTTAGTTGGGGGGTGACTGTTAAAAGTGCATACCGCCAAAAGATAAAATTTGAAATCTG (dsDNA; 2-aminopurine at -1 non-template) | POLRMT/TFAM 43-1230; 43-245 (Homo sapiens) | 2-AP fluorescence | double-stranded DNA, one strand shown | – | – | – | binds
GGGCGGCUAAAGAGUGCAGAGUUACUUAGUUCACUGCAGACGCCC (structured RNA; stem, loops L1 and L2) | LYZ 19-147 (Gallus gallus, UniProt P00698) | filter binding | folded RNA | – | – | – | binds
CGATGCCTGTCGGTGAGACCGTTTGCATC (ssDNA) | Cdca7 | EMSA | single-stranded DNA | – | – | – | no binding

Excerpt of the above:
Sequence | target | technique | molecule type | concentration | temperature | notes | binding
RNA 1 GGAGGAUGUUAAUUGGCGUGUCUUGUCUGCAACGGUAUUC / RNA 2 GAAUACCGUUGCAGACAAGACACGCCAAUUAACAUCCUCC (dsRNA) | EIF2AK2 1-185 F131W (Homo sapiens, UniProt P19525) | tryptophan fluorescence anisotropy | double-stranded RNA | 1 µM | – | – | binds
GGGUAACCAUUAUAACCUGCAAUAAACAACUUAACAACAC (ssRNA) | CPSF4 full length assumed (Homo sapiens, UniProt O95639) | UV cross-linking | RNA | – | – | within CPSF complex | binds
